# Experimental data of several laboratories.
# Every numbered part comes from another study and shows a few of its results, in no order. Numbers after ± are the reported error.

# Series 1 — organism: SARS-CoV-2 Wuhan spike VSV pseudovirus; observed: pseudovirus entry; tested at: 10 µM
Structure (SMILES),inhibition [%]
Cn1c2c(c(=O)n(C)c1=O)C(c1cccc(Br)c1)C1=C(COC1=O)N2 (centres unmarked),37
CCc1n[nH]c(SCC(=O)NC(C)CN2CCc3ccccc3C2)n1 (centres unmarked),100
C=CC(=O)N1CC(=Cc2ccc([N+](=O)[O-])cc2)C(=O)/C(=C/c2ccc([N+](=O)[O-])cc2)C1,100
OC(CN1CCc2ccccc2C1)c1cc(F)ccc1F (centres unmarked),100
O=C1NCCN1c1cccc(C(=O)N2CCc3c([nH]c4ccccc34)C2C2CCCCC2)c1 (centres unmarked),59
C=CCN1CC(C(=O)NCc2ccc(S(=O)(=O)N(C)C)cc2)CC1=O (centres unmarked),57
CS(=O)(=O)CC(=O)N1CCCC2(CCNC2)C1 (centres unmarked),100
CCOC(=O)N1CCN(C2CCCN(C(=O)c3cc(C)nc(C)n3)C2)CC1 (centres unmarked),68
CCOC(=O)c1ccc(N2N=C(C(=O)c3ccccc3)S(=O)(=O)c3ccc(F)cc32)cc1,93
COc1cccc(NC(=O)CCC2CCN(C(=O)C(C)n3cncn3)CC2)c1 (centres unmarked),85
COC1=C2C[C@@H](C)C[C@H](OC)[C@H](O)[C@@H](C)/C=C(\C)[C@H](OC(N)=O)[C@@H](OC)/C=C\C=C(/C)C(=O)NC(=CC1=O)C2=O,77
Cc1cc2c(cc1O)NC(=O)CC2c1ccc(Oc2ccccc2)nc1 (centres unmarked),61
CN(CC1CCCO1)C(=O)c1coc(COc2ccc3c(c2)OCO3)n1 (centres unmarked),100
O=C(Cn1ncc(Cl)c(Cl)c1=O)c1ccc(Cl)s1,64
O=c1c2ccccc2nc(SC2c3ccccc3-c3ccccc32)n1CCCO,98
OC[C@@H]1CN(C2CCSCC2)C[C@H]1c1nc(-c2cccnc2)no1,68
Cn1ccnc1C(=O)C1CCCN(C(=O)c2cc(COc3ccc(F)c(F)c3)on2)C1 (centres unmarked),75

# Mixed results
# rep papain-like protease: Replicase polyprotein 1ab, papain-like protease (rep, Severe acute respiratory syndrome coronavirus 2, UniProt P0DTD1)
# rep nsp14: Replicase polyprotein 1ab, nsp14 (rep, Severe acute respiratory syndrome coronavirus 2, UniProt P0DTD1)
# rep nsp12 RdRp: Replicase polyprotein 1ab, nsp12 RdRp (rep, Severe acute respiratory syndrome coronavirus 2, UniProt P0DTD1)
# Spike glycoprotein S2 subunit: Spike glycoprotein, S2 subunit (Severe acute respiratory syndrome coronavirus 2, UniProt P0DTC2)
Compound,target or system,assay,system,conditions,scale,quantity,value
N[C@@H](CC(=O)N1CCn2c(nnc2C(F)(F)F)C1)Cc1cc(F)c(F)cc1F,SARS-CoV-2,viral replication,"Vero E6, B.1.351 (Beta)",48 h,,IC50,1.65 µM
COc1c(N2C[C@@H]3CCCN[C@@H]3C2)c(F)cc2c(=O)c(C(=O)O)cn(C3CC3)c12,Mycobacterium tuberculosis,,H37Rv katG deletion,,,MIC,0.06 µg/mL
CCOC(=O)c1ccc(OC(=O)CCCCCN=C(N)N)cc1.CS(=O)(=O)O,rep papain-like protease,,,"concentration not given, C111S mutant",reference: positive control,activity,12.3%
Nc1ncnc2c1ncn2[C@@H]1O[C@H](CSCC[C@H](N)C(=O)O)[C@@H](O)[C@H]1O,rep nsp14,thermal shift,,125 µM,,ΔTm,9.2 °C
O=C(c1cccc(-c2nc3ccccc3[nH]2)n1)N1CCN(C(=O)c2cccc(-c3nc4ccccc4[nH]3)n2)CC1,rep nsp12 RdRp,"binding, biolayer interferometry",,concentration not given,,BLI response,-0.02 nm
CC(C)(O)CNc1ncc(-c2ccnc(Nc3ccnc(Cl)c3)n2)c(CC2CC2)n1,SARS-CoV-2,,Vero C1008,,,IC50,< 0.6 µM
COc1c(O)cc2oc(-c3ccc(O)cc3)cc(=O)c2c1O,"Replicase polyprotein 1ab, main protease (rep, Severe acute respiratory syndrome coronavirus 2, UniProt P0DTD1)","protease activity, inhibitor, FRET",,50 µM,,inhibition,16.8%
CN([C@@H](Cc1ccc(OS(=O)(=O)c2cccc3cnccc23)cc1)C(=O)N1CCN(c2ccccc2)CC1)S(=O)(=O)c1cccc2cnccc12,rep nsp12 RdRp,"binding, biolayer interferometry",,concentration not given,,BLI response,-0.02 nm
N#C/C(=C/c1ccc(O)c(O)c1)C(=O)NCc1ccccc1,Spike glycoprotein S2 subunit,,,S2 subunit,,ΔTm,-0.24 °C
CCC/C=C/C/C=C/C=C/C=N/NN=O,Severe acute respiratory syndrome coronavirus 2,"viral replication, inhibitor",Vero C1008,,,IC50,~20 µM
O=C(/C=C/c1ccc(O)c(O)c1)OCCc1ccccc1,Spike glycoprotein S2 subunit,,,S2 subunit,,ΔTm,-0.15 °C
COC(=O)C[C@H](NC(=O)OC(C)(C)C)C(=O)CF,rep papain-like protease,,,"concentration not given, C111S mutant",reference: positive control,activity,21.3%
CC(C)C(=O)OC[C@H]1O[C@@H](n2ccc(NO)nc2=O)[C@H](O)[C@@H]1O,SARS-CoV-2,viral RNA copies,"Vero C1008, Omicron BA.1",48 h,,EC50,2.71 ± 0.11 µM
CC#CCn1c(N2CCC[C@@H](N)C2)nc2c1c(=O)n(Cc1nc(C)c3ccccc3n1)c(=O)n2C,SARS-CoV-2,viral replication,"Vero E6, B.1.617 (Kappa)",48 h,,IC50,2.27 µM
C[C@H]1COc2c(N3CCN(C)CC3)c(F)cc3c(=O)c(C(=O)O)cn1c23,Mycobacterium tuberculosis,,fluoroquinolone-resistant,,,MIC,100 µM
O=[N+]([O-])c1cn2c(n1)OC[C@@H](OCc1ccc(OC(F)(F)F)cc1)C2,Mycobacterium tuberculosis,,H37Rv katG deletion,,,MIC,0.06 µg/mL
O=C(NC1CCN(c2ncnc3[nH]cnc23)CC1)c1cccc(S(=O)(=O)N2CCC2)c1,rep nsp14,"NSP14 enzyme activity, inhibitor",,0.01221 µM,,inhibition,4.21%
CC(C)=CCNc1ncnc2c1ncn2[C@@H]1O[C@H](CO)[C@@H](O)[C@H]1O,SARS-CoV-2,viral RNA copies,"Vero C1008, Omicron BA.1",48 h,,EC50,0.42 ± 0.02 µM

# A few entries again (mixed results):
Compound,target or system,assay,system,conditions,scale,quantity,value
CN([C@@H](Cc1ccc(OS(=O)(=O)c2cccc3cnccc23)cc1)C(=O)N1CCN(c2ccccc2)CC1)S(=O)(=O)c1cccc2cnccc12,rep nsp12 RdRp,"binding, biolayer interferometry",,concentration not given,,BLI response,-0.02 nm
CC(C)=CCNc1ncnc2c1ncn2[C@@H]1O[C@H](CO)[C@@H](O)[C@H]1O,SARS-CoV-2,viral RNA copies,"Vero C1008, Omicron BA.1",48 h,,EC50,0.42 ± 0.02 µM
CCOC(=O)c1ccc(OC(=O)CCCCCN=C(N)N)cc1.CS(=O)(=O)O,rep papain-like protease,,,"concentration not given, C111S mutant",reference: positive control,activity,12.3%
N#C/C(=C/c1ccc(O)c(O)c1)C(=O)NCc1ccccc1,Spike glycoprotein S2 subunit,,,S2 subunit,,ΔTm,-0.24 °C
O=C(c1cccc(-c2nc3ccccc3[nH]2)n1)N1CCN(C(=O)c2cccc(-c3nc4ccccc4[nH]3)n2)CC1,rep nsp12 RdRp,"binding, biolayer interferometry",,concentration not given,,BLI response,-0.02 nm
O=[N+]([O-])c1cn2c(n1)OC[C@@H](OCc1ccc(OC(F)(F)F)cc1)C2,Mycobacterium tuberculosis,,H37Rv katG deletion,,,MIC,0.06 µg/mL
